Results gathered from unrelated publications.
Protocols differ between the studies behind these lines. ± marks the error that the study gave.
DRD2: D(2) dopamine receptor (DRD2, Homo sapiens, UniProt P14416)
Sequence of UniProt P14416 (whole entry, looked up): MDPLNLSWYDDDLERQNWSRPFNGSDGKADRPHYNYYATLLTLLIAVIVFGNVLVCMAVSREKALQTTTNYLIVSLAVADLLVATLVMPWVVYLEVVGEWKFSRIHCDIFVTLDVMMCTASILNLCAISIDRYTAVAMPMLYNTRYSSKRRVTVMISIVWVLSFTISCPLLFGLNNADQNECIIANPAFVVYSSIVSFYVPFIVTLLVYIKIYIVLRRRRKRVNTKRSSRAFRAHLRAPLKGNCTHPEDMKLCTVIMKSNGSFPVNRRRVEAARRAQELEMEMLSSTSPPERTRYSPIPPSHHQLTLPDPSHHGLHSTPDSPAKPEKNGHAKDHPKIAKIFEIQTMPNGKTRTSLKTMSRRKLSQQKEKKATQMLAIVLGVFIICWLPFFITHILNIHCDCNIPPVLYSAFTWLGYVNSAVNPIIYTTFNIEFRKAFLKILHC
CAPN1: Calpain-1 catalytic subunit (CAPN1, Homo sapiens, UniProt P07384)
Sequence of UniProt P07384 (whole entry, looked up): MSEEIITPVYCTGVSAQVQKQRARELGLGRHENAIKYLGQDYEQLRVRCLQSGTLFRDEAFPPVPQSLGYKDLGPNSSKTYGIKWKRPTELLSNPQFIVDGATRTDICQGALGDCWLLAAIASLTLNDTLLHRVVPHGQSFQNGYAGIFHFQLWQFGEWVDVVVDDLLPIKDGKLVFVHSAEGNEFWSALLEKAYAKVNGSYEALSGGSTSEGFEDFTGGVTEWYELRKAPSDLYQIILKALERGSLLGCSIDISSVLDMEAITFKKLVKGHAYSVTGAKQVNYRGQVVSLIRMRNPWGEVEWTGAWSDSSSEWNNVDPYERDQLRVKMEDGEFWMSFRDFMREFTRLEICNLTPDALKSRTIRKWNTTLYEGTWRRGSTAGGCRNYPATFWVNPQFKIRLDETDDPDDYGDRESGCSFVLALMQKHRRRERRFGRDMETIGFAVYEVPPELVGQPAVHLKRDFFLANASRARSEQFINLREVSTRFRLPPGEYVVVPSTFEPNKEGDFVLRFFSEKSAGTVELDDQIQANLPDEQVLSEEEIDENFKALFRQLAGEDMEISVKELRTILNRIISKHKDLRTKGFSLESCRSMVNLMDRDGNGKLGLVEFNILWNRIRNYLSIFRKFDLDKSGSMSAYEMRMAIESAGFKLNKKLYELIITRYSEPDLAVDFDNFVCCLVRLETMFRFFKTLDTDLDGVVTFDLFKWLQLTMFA
bglA: bglA (Thermotoga maritima, UniProt Q08638)
Sequence of UniProt Q08638 (whole entry, looked up): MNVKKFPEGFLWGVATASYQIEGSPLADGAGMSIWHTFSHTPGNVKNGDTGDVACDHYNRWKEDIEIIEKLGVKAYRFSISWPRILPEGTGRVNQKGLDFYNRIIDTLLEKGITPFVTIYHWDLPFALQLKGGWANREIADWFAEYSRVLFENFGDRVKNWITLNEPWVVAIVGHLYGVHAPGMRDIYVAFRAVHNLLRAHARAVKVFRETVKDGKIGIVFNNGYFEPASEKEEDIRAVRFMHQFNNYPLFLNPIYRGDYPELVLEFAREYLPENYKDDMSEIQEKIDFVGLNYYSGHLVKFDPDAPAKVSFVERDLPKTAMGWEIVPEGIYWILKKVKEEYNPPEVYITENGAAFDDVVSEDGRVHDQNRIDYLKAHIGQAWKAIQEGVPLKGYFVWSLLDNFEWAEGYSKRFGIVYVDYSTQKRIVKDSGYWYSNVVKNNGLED
Astl: Astacin-like metalloendopeptidase (Astl, Mus musculus, UniProt Q6HA09)
Sequence of UniProt Q6HA09 (whole entry, looked up): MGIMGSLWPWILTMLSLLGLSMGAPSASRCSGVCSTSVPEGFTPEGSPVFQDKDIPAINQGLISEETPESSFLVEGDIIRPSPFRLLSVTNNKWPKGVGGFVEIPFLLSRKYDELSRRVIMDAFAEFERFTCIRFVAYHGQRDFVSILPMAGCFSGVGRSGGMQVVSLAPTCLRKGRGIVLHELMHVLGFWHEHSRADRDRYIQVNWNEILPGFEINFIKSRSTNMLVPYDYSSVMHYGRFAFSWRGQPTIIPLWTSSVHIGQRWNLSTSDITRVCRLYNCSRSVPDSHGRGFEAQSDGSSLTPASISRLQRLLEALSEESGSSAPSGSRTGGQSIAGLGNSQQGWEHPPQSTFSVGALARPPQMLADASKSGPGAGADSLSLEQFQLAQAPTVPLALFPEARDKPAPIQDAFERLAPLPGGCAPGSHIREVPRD
DHFR: Dihydrofolate reductase (DHFR, Homo sapiens, UniProt P00374)
Sequence of UniProt P00374 (whole entry, looked up): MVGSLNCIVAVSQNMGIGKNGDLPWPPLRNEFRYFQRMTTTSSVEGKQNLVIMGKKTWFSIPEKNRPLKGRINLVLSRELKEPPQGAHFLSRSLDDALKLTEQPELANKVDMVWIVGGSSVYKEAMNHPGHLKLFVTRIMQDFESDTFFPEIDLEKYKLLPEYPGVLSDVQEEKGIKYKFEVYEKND
Na(+)/H(+) exchange regulatory cofactor NHE-RF2 PDZ domain 2: Na(+)/H(+) exchange regulatory cofactor NHE-RF2, PDZ domain 2 (Homo sapiens, UniProt Q15599)
Calpain-2 catalytic subunit: Calpain-2 catalytic subunit (Homo sapiens, UniProt P17655)
Sequence of UniProt P17655 (whole entry, looked up): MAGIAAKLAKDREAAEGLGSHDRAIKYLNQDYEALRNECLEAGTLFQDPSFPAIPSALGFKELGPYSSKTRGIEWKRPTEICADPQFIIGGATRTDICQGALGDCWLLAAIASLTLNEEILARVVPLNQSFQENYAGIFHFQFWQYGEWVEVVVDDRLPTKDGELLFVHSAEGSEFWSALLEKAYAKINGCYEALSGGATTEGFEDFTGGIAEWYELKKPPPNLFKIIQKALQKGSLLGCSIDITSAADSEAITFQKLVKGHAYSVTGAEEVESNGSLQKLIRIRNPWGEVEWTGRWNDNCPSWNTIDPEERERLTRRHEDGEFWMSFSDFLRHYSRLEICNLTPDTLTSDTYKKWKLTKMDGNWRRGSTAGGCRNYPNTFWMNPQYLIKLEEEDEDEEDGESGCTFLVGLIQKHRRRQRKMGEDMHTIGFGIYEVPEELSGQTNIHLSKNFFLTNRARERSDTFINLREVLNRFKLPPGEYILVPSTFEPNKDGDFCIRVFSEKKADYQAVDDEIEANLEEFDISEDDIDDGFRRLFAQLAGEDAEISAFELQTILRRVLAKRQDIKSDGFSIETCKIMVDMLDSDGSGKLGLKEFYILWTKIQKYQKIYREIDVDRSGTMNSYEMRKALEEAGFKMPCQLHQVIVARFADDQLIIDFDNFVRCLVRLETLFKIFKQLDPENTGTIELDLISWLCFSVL
EPHA2: Ephrin type-A receptor 2 (EPHA2, Homo sapiens, UniProt P29317)
Sequence of UniProt P29317 (whole entry, looked up): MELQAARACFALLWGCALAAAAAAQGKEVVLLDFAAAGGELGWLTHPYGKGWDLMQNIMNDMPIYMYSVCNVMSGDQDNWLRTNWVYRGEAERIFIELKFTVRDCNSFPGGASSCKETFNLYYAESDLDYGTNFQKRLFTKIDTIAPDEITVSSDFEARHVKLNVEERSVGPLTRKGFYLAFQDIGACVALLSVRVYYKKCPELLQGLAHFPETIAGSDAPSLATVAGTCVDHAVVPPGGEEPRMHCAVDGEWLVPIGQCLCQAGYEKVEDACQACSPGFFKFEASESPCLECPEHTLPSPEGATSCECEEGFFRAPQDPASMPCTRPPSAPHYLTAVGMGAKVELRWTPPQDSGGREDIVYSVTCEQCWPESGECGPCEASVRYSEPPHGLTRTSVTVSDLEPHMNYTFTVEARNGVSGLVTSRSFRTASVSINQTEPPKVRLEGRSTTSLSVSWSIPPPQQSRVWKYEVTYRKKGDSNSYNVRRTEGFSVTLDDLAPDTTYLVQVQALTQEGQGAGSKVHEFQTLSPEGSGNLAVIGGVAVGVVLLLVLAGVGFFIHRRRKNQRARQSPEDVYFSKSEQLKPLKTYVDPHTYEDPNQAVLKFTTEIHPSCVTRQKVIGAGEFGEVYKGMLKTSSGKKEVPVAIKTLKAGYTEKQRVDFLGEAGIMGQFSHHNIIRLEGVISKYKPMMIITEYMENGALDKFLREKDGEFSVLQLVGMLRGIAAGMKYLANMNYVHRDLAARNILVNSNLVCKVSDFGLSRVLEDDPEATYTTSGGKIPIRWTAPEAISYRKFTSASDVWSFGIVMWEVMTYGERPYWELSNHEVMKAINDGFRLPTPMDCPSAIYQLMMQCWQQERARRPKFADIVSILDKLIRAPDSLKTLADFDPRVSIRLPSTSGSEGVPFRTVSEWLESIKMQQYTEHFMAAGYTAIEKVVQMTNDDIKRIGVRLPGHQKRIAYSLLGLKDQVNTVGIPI
Sequence of UniProt P98170 (whole entry, looked up): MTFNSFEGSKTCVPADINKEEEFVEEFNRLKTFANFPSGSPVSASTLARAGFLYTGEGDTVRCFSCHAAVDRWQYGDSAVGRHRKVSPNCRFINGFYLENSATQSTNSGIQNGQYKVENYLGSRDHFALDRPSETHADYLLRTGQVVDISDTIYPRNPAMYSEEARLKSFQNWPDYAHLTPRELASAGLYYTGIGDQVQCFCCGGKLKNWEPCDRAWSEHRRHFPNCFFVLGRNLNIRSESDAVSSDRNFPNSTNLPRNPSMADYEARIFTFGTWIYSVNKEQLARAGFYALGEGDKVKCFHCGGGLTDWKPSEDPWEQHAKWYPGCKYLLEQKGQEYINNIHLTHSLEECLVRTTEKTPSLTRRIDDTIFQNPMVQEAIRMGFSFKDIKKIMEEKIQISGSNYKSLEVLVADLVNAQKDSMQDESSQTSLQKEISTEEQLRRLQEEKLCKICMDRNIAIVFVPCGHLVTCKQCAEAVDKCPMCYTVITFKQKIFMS
Sequence of UniProt P21554 (whole entry, looked up): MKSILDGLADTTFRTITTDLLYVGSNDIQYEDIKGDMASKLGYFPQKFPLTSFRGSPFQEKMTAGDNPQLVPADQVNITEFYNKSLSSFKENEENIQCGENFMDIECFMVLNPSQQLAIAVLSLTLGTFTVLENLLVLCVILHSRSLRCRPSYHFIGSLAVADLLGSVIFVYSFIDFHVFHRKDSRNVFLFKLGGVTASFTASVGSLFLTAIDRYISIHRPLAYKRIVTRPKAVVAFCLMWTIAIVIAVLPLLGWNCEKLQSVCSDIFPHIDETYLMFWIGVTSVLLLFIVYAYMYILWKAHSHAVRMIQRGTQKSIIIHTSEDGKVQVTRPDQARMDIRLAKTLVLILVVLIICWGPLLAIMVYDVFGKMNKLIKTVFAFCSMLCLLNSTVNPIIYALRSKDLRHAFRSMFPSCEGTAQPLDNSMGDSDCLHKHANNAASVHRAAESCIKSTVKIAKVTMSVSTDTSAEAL

SMILES | target | assay | test system | setting | Ki [µM]
CC1(C)C2=C3C=C4C5=[N+](CCC4OC3CCN2c2ccc(S(=O)(=O)[O-])cc21)c1ccc(C(=O)NCCCCOc2ccc(C(=O)CCCN3CCC(O)(c4ccc(Cl)cc4)CC3)cc2)cc1C5(C)C (centres unmarked) | DRD2 | ligand displacement, radioligand | – | cell membranes | 0.013
CCC(NC(=O)C(CC(C)C)NC(=O)CCc1ccccc1)C(=O)C(=O)NCc1cccc(OC)c1 (centres unmarked) | CAPN1 | enzyme activity, inhibitor, fluorescence | – | – | 0.152
CCCCN1[C@H](CCC)[C@H](O)[C@@H](O)[C@H](O)[C@H]1CO | bglA | competitive inhibitor | – | together with: p-nitrophenyl glucopyranoside | > 2000
O=C(O)C1CC1C(=O)c1ccc(Cl)c(Cl)c1 (centres unmarked) | KMO (Homo sapiens, UniProt O15229) | enzyme activity, inhibitor, HPLC | – | pH 8.5 | 0.0567
CCC[C@@H]1[C@H](O)[C@@H](O)[C@H](O)[C@@H](CO)N1C(=S)NCCc1ccccc1 | bglA | competitive inhibitor | – | together with: p-nitrophenyl glucopyranoside | > 2000
O=C(CCN(Cc1cccnc1)Cc1cccnc1)NO | Astl | enzyme activity, inhibitor, fluorogenic | – | pH 7.4, 37 °C, apparent Ki, Morrison equation, together with: 25 µM substrate | 28.3 ± 1.1
N=C(N)Nc1nc2ccc(Cl)cc2[nH]1 | DHFR | inhibitor | – | – | 2.77
CC[C@H](C)[C@H](NC(=O)[C@@H](NC(=O)[C@H](CO)NC(=O)[C@@H](NC(=O)[C@@H]1CCCN1C(=O)[C@H](Cc1c[nH]c2ccccc12)NC(=O)[C@@H](N)CS)[C@@H](C)O)[C@@H](C)CC)C(=O)O | Na(+)/H(+) exchange regulatory cofactor NHE-RF2 PDZ domain 2 | binding to PDZ2 domain, inhibitor, fluorescence polarization | – | – | > 5000
CC1(C)NC(N)=Nc2nc3c(Cl)cc(Cl)cc3n21 | DHFR | inhibitor | – | – | 1.35
CC(C)C[C@@H]1NC(=O)[C@H](C)NC(=O)[C@H](CC2CCN(C(=N)N)CC2)NC(=O)[C@H](CO)NC(=O)[C@H](CCCNC(=N)N)NC(=O)[C@H](CCCCN)NC(=O)[C@@H]2CCCN2C(=O)[C@@H](N)CSSC[C@@H](C(=O)O)NC(=O)[C@H](Cc2ccccc2)NC1=O | Plasma kallikrein (KLKB1, Homo sapiens, UniProt P03952) | enzyme activity, inhibitor, absorbance | – | pH 7.4 | 0.022
CC(=O)c1ccc(NC(=O)c2nc(-c3ccccc3)n(-c3ccc(Cl)cc3)n2)cc1 | CNR1 (Homo sapiens, UniProt P21554) | cell-free assay | – | – | 0.502
CCC(NC(=O)C(CC(C)C)NC(=O)CCc1ccccc1)C(=O)C(=O)NCc1cc(F)cc(OC)c1 (centres unmarked) | Calpain-2 catalytic subunit | enzyme activity, inhibitor, fluorescence | – | – | 0.103
O=C(CN(Cc1ccc(Cl)c(O)c1F)Cc1ccc(Cl)c(O)c1F)NO | Astl | enzyme activity, inhibitor, fluorogenic | – | pH 7.4, 37 °C, apparent Ki, Morrison equation, together with: 25 µM substrate | 0.81 ± 0.37
CNC(=O)c1cc(C)ccc1NC(=O)c1ccc(-c2c(C)ccc3[nH]ncc23)c(C)c1 | EPHA2 | enzyme activity, inhibitor | – | – | 0.0141
CCC(C)N(C)C(=O)C(C)Cc1cc(-c2ccccc2)nc2ccccc12 (centres unmarked) | Tspo (Rattus norvegicus, UniProt P16257) | binding, radioligand displacement | rat brain homogenate | – | 0.005 ± 0.003
CCCc1nc(C(C)(C)O)c(C(=O)O)n1Cc1ccc(-c2ccccc2-c2nnn[nH]2)cc1 | AGTR1 (Homo sapiens, UniProt P30556) | cell-free assay | – | – | 0.0053
CCC[C@H]1N[C@H](CO)[C@@H](O)[C@H](O)[C@H]1O | Glucoamylase (GLAA, Aspergillus niger, UniProt P69328) | enzyme activity, inhibitor | – | – | 67
NCCCCCO[C@H]1O[C@H](COS(=O)(=O)O)[C@@H](O[C@@H]2O[C@@H](C(=O)O)[C@@H](O[C@H]3O[C@H](COS(=O)(=O)O)[C@@H](O[C@@H]4O[C@@H](C(=O)O)[C@@H](O[C@H]5O[C@H](COS(=O)(=O)O)[C@@H](O[C@@H]6O[C@@H](C(=O)O)[C@@H](O[C@H]7O[C@H](COS(=O)(=O)O)[C@@H](O[C@@H]8O[C@@H](C(=O)O)[C@@H](O)[C@H](O)[C@H]8OS(=O)(=O)O)[C@H](O)[C@H]7NS(=O)(=O)O)[C@H](O)[C@H]6OS(=O)(=O)O)[C@H](O)[C@H]5NS(=O)(=O)O)[C@H](O)[C@H]4OS(=O)(=O)O)[C@H](O)[C@H]3NS(=O)(=O)O)[C@H](O)[C@H]2OS(=O)(=O)O)[C@H](O)[C@H]1NS(=O)(=O)O | Heparanase (HPSE, Homo sapiens, UniProt Q9Y251) | enzyme activity, inhibitor, absorbance | – | – | 4.4
CCOC(=O)CSc1nc2ccccc2c(=O)n1-c1ccccc1C | CFTR (Homo sapiens, UniProt P13569) | – | – | concentration not given | ~5
CCOCCNC(=O)N1CCC[C@H](c2n[nH]c(-c3ccccc3)n2)C1 | Aromatase (CYP19A1, Homo sapiens, UniProt P11511) | enzyme activity, inhibitor | – | – | 12.8
CCCCCCCC[C@@H]1[C@H](O)[C@@H](O)[C@H](O)[C@@H](CO)N1C(=S)NCCCC | bglA | competitive inhibitor | – | together with: p-nitrophenyl glucopyranoside | 293 ± 25

SMILES | target | assay | test system | setting | Ki [µM]
N=C(N)NCCCC(=O)NCC1(Nc2ccccc2)CCN(Cc2ccccc2)CC1 | Neuropeptide FF receptor 2 (Homo sapiens, UniProt Q9Y5X5) | cell-free assay | – | – | 2.68
Fc1cc(OCCCN2CCN(c3cccc4sccc34)CC2)ccc1CN1CCOCC1 | 5-hydroxytryptamine receptor 2C (Rattus norvegicus, UniProt P08909) | – | – | – | 0.43 ± 0.0523
CCC(NC(=O)C(CC(C)C)NC(=O)NCc1ccccc1)C(=O)C(=O)NCc1cccc(OC)c1 (centres unmarked) | CAPN1 | enzyme activity, inhibitor, fluorescence | – | – | 0.077
COc1ccc(CCC(=O)Nc2nc3ccc(CCC(=O)NCCOCCOCC(=O)N[C@H](C(=O)N4C[C@H](O)C[C@H]4C(=O)NCc4ccc(-c5scnc5C)cc4)C(C)(C)C)cc3s2)cc1OC | Squalene synthase (Homo sapiens, UniProt P37268) | ligand displacement, FP | – | – | 0.1
C[C@H]1CN(C2CC2)C[C@H]1NC(=O)c1cnc2c(F)ccc(F)c2c1 | DRD2 | ligand displacement, radioligand | – | – | > 10
CC[C@H](C)[C@H](NC(=O)[C@H](CCCCN)NC(=O)[C@H](CO)NC(=O)[C@@H](NC(=O)[C@H](CCC(N)=O)NC(=O)[C@H](CCSC)NC(=O)[C@@H](N)CS)[C@@H](C)O)C(=O)O | Na(+)/H(+) exchange regulatory cofactor NHE-RF2 PDZ domain 2 | binding to PDZ2 domain, inhibitor, fluorescence polarization | – | – | 109 ± 10
O=C(CCN(Cc1ccc(Cl)cc1F)Cc1ccc(Cl)cc1F)NO | Astl | enzyme activity, inhibitor, fluorogenic | – | pH 7.4, 37 °C, apparent Ki, Morrison equation, together with: 25 µM substrate | 2.13 ± 0.21
CN[C@@H](C)C(=O)N[C@H]1CN(C(=O)Cc2ccccc2)CC[C@H]2CC[C@@H](C(=O)NCc3ccc(C(C)C)cc3)N2C1=O | E3 ubiquitin-protein ligase XIAP, BIR3 domain (XIAP, Homo sapiens, UniProt P98170) | binding, fluorescence polarization | – | BIR3 domain | 38.4 ± 3.9
CNC(=O)C1CCN(c2cc(C)c(F)cc2NC(=O)c2ccc(-c3cc(O)ccc3C)c(C)c2)CC1 | EPHA7 (Homo sapiens, UniProt Q15375) | binding, LanthaScreen kinase binding | – | – | > 1
CCC(=O)[C@@H]1[C@H]2[C@H](O)[C@@H](O)[C@H](O)[C@@H](CO)[C@@H]12 | bglA | enzyme activity, inhibitor, Lineweaver-Burk | – | pH 6.8, 25 °C, together with: p-nitrophenyl β-D-glucopyranoside | 88.9
COc1ccc(CNCCN2C(=O)c3cccc4cccc(c34)C2=O)cc1 | Chitooligosaccharidolytic beta-N-acetylglucosaminidase (Ostrinia furnacalis, UniProt Q06GJ0) | inhibitor | – | pH 6.0, 25 °C, together with: pNP-β-GlcNAc | > 100
CCC(NC(=O)C(CC(C)C)NC(=O)CCc1ccncc1)C(=O)C(=O)NCc1cc(OC)cc(OC)c1 (centres unmarked) | Calpain-2 catalytic subunit | enzyme activity, inhibitor, fluorescence | – | – | 0.062
CNC(=O)C1CCN(c2ccccc2NC(=O)c2ccc(-c3cc(O)ccc3C)c(C)c2)CC1 | EPHA2 | enzyme activity, inhibitor | – | – | 0.0006
OC[C@@H]1[C@@H](O)[C@H](O)[C@@H](O)c2nccn21 | bglA | enzyme activity, inhibitor | – | pH 6.8 | 0.026
CCCCCCCC[C@H]1N[C@H](CO)[C@@H](O)[C@H](O)[C@H]1O | bglA | competitive inhibitor | – | together with: p-nitrophenyl glucopyranoside | 29 ± 3
[N-]=[N+]=N[C@H]1C[C@H](n2cnc3c(N)ncnc32)O[C@@H]1COP(=O)(O)OP(=O)(O)OP(=O)(O)O | TERT (Homo sapiens, UniProt O14746) | enzyme activity, inhibitor | – | – | 4.8
CN[C@@H](C)C(=O)N[C@H]1CN(C(=O)Cc2ccccc2)CC[C@H]2CC[C@@H](C(=O)NCc3ccccc3Cl)N2C1=O | E3 ubiquitin-protein ligase XIAP, BIR3 (XIAP, Homo sapiens, UniProt P98170) | ligand displacement, FP | – | – | 1.46
CCCCNC(=S)N1[C@H](CCC)[C@H](O)[C@@H](O)[C@H](O)[C@H]1CO | bglA | competitive inhibitor | – | together with: p-nitrophenyl glucopyranoside | > 2000
CNC(=O)C1CCN(c2ccccc2NC(=O)c2ccc(-c3cccc(O)c3)c(C)c2)CC1 | EPHA2 | enzyme activity, inhibitor | – | – | 0.117
CC(C)(O)c1ccc(N2Cc3c(ccnc3-c3ccc(F)cc3OCC(F)(F)F)C2=O)cc1 | UGCG (Homo sapiens, UniProt Q16739) | noncompetitive inhibitor | – | together with: UDP-glucose | 0.0164 ± 0.0017

For quick reference, copied from above:
SMILES | target | assay | test system | setting | Ki [µM]
O=C(CCN(Cc1cccnc1)Cc1cccnc1)NO | Astl | enzyme activity, inhibitor, fluorogenic | – | pH 7.4, 37 °C, apparent Ki, Morrison equation, together with: 25 µM substrate | 28.3 ± 1.1
CC(=O)c1ccc(NC(=O)c2nc(-c3ccccc3)n(-c3ccc(Cl)cc3)n2)cc1 | CNR1 (Homo sapiens, UniProt P21554) | cell-free assay | – | – | 0.502
N=C(N)NCCCC(=O)NCC1(Nc2ccccc2)CCN(Cc2ccccc2)CC1 | Neuropeptide FF receptor 2 (Homo sapiens, UniProt Q9Y5X5) | cell-free assay | – | – | 2.68
CN[C@@H](C)C(=O)N[C@H]1CN(C(=O)Cc2ccccc2)CC[C@H]2CC[C@@H](C(=O)NCc3ccc(C(C)C)cc3)N2C1=O | E3 ubiquitin-protein ligase XIAP, BIR3 domain (XIAP, Homo sapiens, UniProt P98170) | binding, fluorescence polarization | – | BIR3 domain | 38.4 ± 3.9
O=C(O)C1CC1C(=O)c1ccc(Cl)c(Cl)c1 (centres unmarked) | KMO (Homo sapiens, UniProt O15229) | enzyme activity, inhibitor, HPLC | – | pH 8.5 | 0.0567
